Measured values of several laboratories.
Each numbered part is a random draw from the data of one study; scales do not carry over between parts. Positions count from the first letter of the parent shown.

Sample 1 — technique: protein binding microarray; molecule type: double-stranded DNA, one strand shown; sample: in vitro; concentration: not given; baseline: not given; reading: higher = stronger binding
Target: Histone acetyltransferase KAT6A, both winged helices, GST fusion (KAT6A, Homo sapiens, UniProt Q92794, residues 1-181)
Setting: 8-mer, flanks averaged, mean of 2 arrays, mostly near background
Residues (chain): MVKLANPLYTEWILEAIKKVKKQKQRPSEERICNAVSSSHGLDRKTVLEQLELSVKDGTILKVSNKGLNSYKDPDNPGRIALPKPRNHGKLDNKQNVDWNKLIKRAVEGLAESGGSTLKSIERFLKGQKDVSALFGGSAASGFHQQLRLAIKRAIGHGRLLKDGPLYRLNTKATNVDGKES
`CTGTCTCA` has an E-score of -0.144.
The E-score of `ACGCATAG` is reported as 0.133.
`AATCGCAT` has an E-score of -0.0488.
For `ATGCTGAG`, the E-score was -0.0514.
The E-score of `GCCAAGCC` is reported as 0.0334.
`ATCAACTA` has an E-score of -0.135.
`AATTAAGT` has an E-score of -0.083.
`CCCAAGAG` gave an E-score of -0.295.
The E-score of `AGAGCTCA` is reported as -0.159.
For `AGACGCTC`, the E-score was 0.112.
`TACGCGTA` has an E-score of 0.351.
`ATTAGAAG` gave an E-score of -0.105.
For `CCCTATTA`, the E-score was -0.177.
The E-score of `GAGTTGCC` is reported as 0.0522.
The E-score of `CGATCCAA` is reported as 0.0166.
For `CGACGGAG`, the E-score was 0.24.
For `GCAGCTCA`, the E-score was -0.164.
The E-score of `GAAGTGCC` is reported as -0.0171.
With `AAAGTAGC` the E-score was -0.136.
The E-score of `AAGGGGGG` is reported as -0.316.
The E-score of `AATCCAAC` is reported as -0.112.
`CCTTGTGA` has an E-score of 0.0181.
The E-score of `GATTCCAC` is reported as 0.00017.
The E-score of `GATGTGTA` is reported as -0.0681.

Sample 2 — technique: RNA Bind-n-Seq; molecule type: RNA; sample: in vitro; concentration: 365 nM; baseline: no-protein control; reading: higher = stronger binding
Target: RNA binding protein fox-1 homolog 2, RRM domain, GST-SBP tag (RBFOX2, Homo sapiens, UniProt O43251-10, residues 100-194)
Setting: natural RNA segment, single round, ends assumed
All sequences stand within: GGGAGUUCUACAGUCCGACGAUC … UGGAAUUCUCGGGUGCCAA
Target sequence (chain): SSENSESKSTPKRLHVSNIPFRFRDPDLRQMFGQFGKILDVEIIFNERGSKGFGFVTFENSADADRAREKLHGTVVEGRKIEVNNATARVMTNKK
For `CCCACUUGUGUCUCACCCCCAUGUCAUUUCUCCUUCUCUGCCUUGGUUCCUCUUUCUCCAUCACUGGCUCCUUCUUUGAUGCUCUCUCCCCAUCUCAGGGUCAGACCAGC`, “RBNS enrichment (R)” read 0.952.
Under “RBNS enrichment (R)”, `UCCUUCAAUUAAUAAAAUAUUUUUGCCAUAGUAUGUGACUCUACAUAACAUACUGAAACUAUUUAUAUUUUCUUUUUUAAGGAUAUUUAGAAAUUUUGUGUAUUAUAUGG` is recorded as 0.815.
For `UCUUUUUUCCAUGGUCUCAUCUCUUGCCCUGUUGUGGAGUCUGUCUUCGGUGUCCUCCACACUGACACAGAUCCCCUCCUCAUGGUCGGCAGUUGUGCCCGUUUUUUGAC`, “RBNS enrichment (R)” read 0.301.
Under “RBNS enrichment (R)”, `GGUGUCUGGUAACCAUGGGCCUCCACUGACCCAUCCCUCUCUUUUAAACUGUCAGGUCAUUAUCAGGCAUAGGCAGCCUAUAGGGCCCAAAGAAGGCAAAAAGAUAAGAU` is recorded as 0.298.
`AUGUAGAGCAUAUCUGUUAUAUGUUUAUGUAACUAUCAAAUGGUUAUUUGUUACUAAAGCUAUAUUUCUGAUAAAAAAUAUUUUAGGAUAAUUGCCUACAGAGGGAUUUA` — result for “RBNS enrichment (R)”: 0.51.
`AGACCCAGAGUCUGGAAGCUUCACACUGAGUUGGUGACUCCAGCUUCUAUCUCCUGGAGGUCCCAAGAUGAUUCAUAAAUACUGCCUGGUGCACAGUGCCCAAACAGCAA` — result for “RBNS enrichment (R)”: 0.299.
For `UGAUCAGUCUAAGAUGGGUGGGGACGUCCUGCCACCUGGGGCAGUCACCUGCCCAGAUCCCAGAAGGACCUCCUGAGCGAUGACUCAAGUGUCUCAGUCCACCUGAGCUG`, “RBNS enrichment (R)” read 0.277.
For `AGAGGAGGCCUGGGGGCCUGGACGAAGAGGCCUAGGACCUGAAGAGACUCCAGCGAGUCUCGGGAAGCCCAGGGGACCUGUCACCAUCUGGGCACUUCCCAGGCUCAAUG`, “RBNS enrichment (R)” read 0.526.

Sample 3 — technique: DHFR PCA, deep sequencing; sample: yeast; with: (+)-ABA 0.032 µM; baseline: wild-type fitted maximum; reading: higher = stronger binding
Target: ABI1, truncated, D143A, DHFR fusion (Arabidopsis thaliana)
Setting: methotrexate growth selection, single substitutions
Starting sequence: PYL1, truncated, DHFR fusion (Arabidopsis thaliana); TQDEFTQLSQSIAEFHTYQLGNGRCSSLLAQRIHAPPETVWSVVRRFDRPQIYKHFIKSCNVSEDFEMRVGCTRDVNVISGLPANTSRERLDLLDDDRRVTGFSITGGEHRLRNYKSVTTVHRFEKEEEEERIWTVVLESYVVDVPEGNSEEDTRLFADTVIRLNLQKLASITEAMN; partner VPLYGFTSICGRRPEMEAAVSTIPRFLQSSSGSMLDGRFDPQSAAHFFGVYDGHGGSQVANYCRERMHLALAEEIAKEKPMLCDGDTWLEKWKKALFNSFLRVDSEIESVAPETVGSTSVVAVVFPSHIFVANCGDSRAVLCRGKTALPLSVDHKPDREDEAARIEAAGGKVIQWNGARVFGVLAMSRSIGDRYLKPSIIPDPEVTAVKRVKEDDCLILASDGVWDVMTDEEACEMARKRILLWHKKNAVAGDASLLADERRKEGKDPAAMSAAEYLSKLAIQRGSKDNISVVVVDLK
Under “relative binding score”, `S59F` is recorded as -1.71%.
Under “relative binding score”, `H110Y` is recorded as 18.4%.
`L82N`: “relative binding score” 12%.
For `L94I`, “relative binding score” read 7.76%.
`F47T` — result for “relative binding score”: -1.24%.
`L29E` — result for “relative binding score”: 0.181%.
Under “relative binding score”, `G107A` is recorded as 22.1%.
Under “relative binding score”, `T86Y` is recorded as 24.8%.
For `H16G`, “relative binding score” read 3.12%.
`R69P` — result for “relative binding score”: 2.98%.
For `N61T`, “relative binding score” read 55.3%.
For `V137E`, “relative binding score” read 0.623%.
For `A30H`, “relative binding score” read 11.2%.
Under “relative binding score”, `R32S` is recorded as 15.5%.
`S26T` — result for “relative binding score”: 24.7%.
`H122G` — result for “relative binding score”: 1.9%.
`N85H` — result for “relative binding score”: 63.2%.
`V40N` — result for “relative binding score”: -9.74%.
`E38Y` — result for “relative binding score”: -2.2%.
`E14T` — result for “relative binding score”: 3.04%.
For `V136H`, “relative binding score” read -8.21%.
`T17C`: “relative binding score” 2.8%.
Under “relative binding score”, `Y18C` is recorded as 1.23%.
Under “relative binding score”, `E64A` is recorded as 34.6%.
`D153Q` — result for “relative binding score”: 1.25%.

Sample 4 — technique: RNA Bind-n-Seq; molecule type: RNA; sample: in vitro; concentration: not given; baseline: input RNA pool; reading: higher = stronger binding
Target: RING finger protein unkempt homolog, zinc fingers 1-6, GST-SBP tag (UNK, Homo sapiens, UniProt Q9C0B0, residues 30-357)
UniProt Q9C0B0, sequence (30-357, looked up): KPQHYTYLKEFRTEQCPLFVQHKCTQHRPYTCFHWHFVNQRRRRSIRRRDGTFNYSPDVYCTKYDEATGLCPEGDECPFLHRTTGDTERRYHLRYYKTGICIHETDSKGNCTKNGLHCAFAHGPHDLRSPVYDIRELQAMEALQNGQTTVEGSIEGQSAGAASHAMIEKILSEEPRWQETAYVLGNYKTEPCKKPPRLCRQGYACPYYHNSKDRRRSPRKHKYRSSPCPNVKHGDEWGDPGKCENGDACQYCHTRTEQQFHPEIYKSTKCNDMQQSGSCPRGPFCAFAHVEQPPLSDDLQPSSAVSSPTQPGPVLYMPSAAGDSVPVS
Setting: RNA with constant flanks, human-mouse chimeric sites, ends assumed
All sequences stand within: GGGAGUUCUACAGUCCGACGAUC … CAACAGAGGAUUGAGCAUCA
`CUUUUUGAAUCAUUCAAGAGUUUUGAAGGUCUCUUUUAUUUUCUGGGGUCCAUUGUUAACUUUAGCCAGGACCCAGAUGUGCACUUUAAAUAUAUUCAGGCGGCUUGCAAGACUGGGCAA` gave a bound/input enrichment of 0.459 ratio.
`AAAGAACUACUGAGGCAAGGCAGCAAAUUUAGGAGAGACAUUUCAACAAUAUUGAUAGAGUUAGGAUUCCAAAUUAAAAAGAAAACUAAGACAUUAUAUAUCAACAAAGCCAAUAUCUGG` has a bound/input enrichment of 10.9 ratio.
For `AGAAUCUUGGGACUGUUUUACUUAAUUGGUCAUUGAUAGCUUAACAAACAUGGAGAUAAGAUUAGAAGUUUUGACAUCAACAGGUAUUAAGCAGAAAAAACCAUGGCCACGUGUCUCCUG`, the bound/input enrichment was 0.309 ratio.
The bound/input enrichment of `GAGCGUCUUGCCCGCACCGGGAUCAUAGUGACCACGAGUGAGGCUGUCCUCCUACAGCUGGUGGCUGACAAAGACCACCCGAAGUUCAAGGAAAUUCAGAACCUAAUUAAGGCGAGUGCC` is reported as 0.111 ratio.
For `UAUCCAACUUUCUUGCCACAUUUUGAAUUCCAAGACAUUAUUCCUCCAGAUGACUUCCUAACGAGUGAUGAAGAGCAAGAUUUGGUUUUAUUUGGAACUAUGAGAGGACAAGUUGUUGGA`, the bound/input enrichment was 0.114 ratio.
The bound/input enrichment of `UUAAUCCCCUUUACUGCUCCCCCACUUCUCAUGGUAAUAACAAAGUCUUAUAUCCCCGUCCUAGCUUUCACUCAGAUGGCUUAUGGAGCCGGUUUCCUAUCUUUCUUGGGAGGGAUCAGA` is reported as 0.19 ratio.
For `GUAUACGGUUAUCGAGGAAAGGACUGUAGAGCGAAUGUAUACCUGCUUCCCACAGGGGAGAUAGUUUAUUUUAUCGCAUCAGUAGUAGUCCUGUUUAAUUAUGAGGAGAGAACUCAGCGA`, the bound/input enrichment was 9.87 ratio.
With `UUCAAAGGCUGUGUUAUCUGUGUCAUUUCAUAAGUAACUCUGGGGGAGGGAAAUUCUGUUCUUUUGUUUAAUUUUCCCCCAGAUAAAGCCAAAGUGUGUGUUGAAGAACUGAGAAAAAAU` the bound/input enrichment was 0.315 ratio.

For quick reference, copied from above (sample 1):
For `GCAGCTCA`, the E-score was -0.164.
The E-score of `GAAGTGCC` is reported as -0.0171.
With `AAAGTAGC` the E-score was -0.136.
The E-score of `AAGGGGGG` is reported as -0.316.
The E-score of `AATCCAAC` is reported as -0.112.
